# Published values pooled from the literature.
# Each line is one published result; not all experiments were run side by side. ± gives the spread as reported.
Structure (SMILES),organism,assay,system,conditions,EC50
COc1cn(Cc2ccc(F)cc2)cc(C(=O)NCc2ccc(F)cc2F)c1=O,Human betaherpesvirus 5,"viral replication, inhibitor",,7 days,> 50000 nM
COc1ccccc1-c1n[nH]c2nc(N[C@H]3CC[C@H](NS(=O)(=O)CC(C)C)CC3)ncc12,Leishmania donovani,,"LdBOB CRK12 G572D overexpressing, promastigotes",,1.99 ± 0.002 nM
CC(=O)CCC1C(=O)NC(C(C)C)C(=O)NC(Cc2cc(O)cc(F)c2)C(=O)N2CCCC(N2)C(=O)OC(C(C)=CC=CC(=O)N2CCCCO2)CC=CC=CC(O)C(C)C1O (stereo not drawn),hepatitis C virus genotype 1b,luciferase,Huh-5-2 replicon,4 days,33 ± 10 nM
CNC(=O)c1ccc(-c2cnn3ccc(C(=O)N(C)c4ccc(C#N)cn4)cc23)cc1,Cryptosporidium parvum,cytopathic effect,HCT-8,,113 ± 72 nM
Cc1cccc(-c2cc(C#N)cc(Oc3c(C(F)(F)F)ccn(Cc4n[nH]c(=O)n4C)c3=O)c2)c1,human immunodeficiency virus 1,viral cytopathic effect,"MT-4, K103N Y181C mutant",,260 ± 120 nM
Nc1ncnc2c1c(F)cn2[C@@H]1O[C@H](CO)[C@@H](O)[C@H]1O,Trypanosoma vivax,"parasite growth, resazurin",,24 h,38 nM
CC(=Nn1c(-c2ccccc2)nc2ccccc2c1=O)c1ccc(Cl)cc1,feline herpesvirus,"viral replication, MTS",CRFK,,> 100 µg/mL
CNC(=O)CNc1cnc2ccc(-c3ccc(OC)c(OC)c3)cc2n1,Cryptosporidium parvum,cytopathic effect,HCT-8,,11800 ± 1890 nM
Nc1ncnc2c1c(Cl)cn2[C@@H]1O[C@H](CO)[C@@H](O)[C@H]1O,Trypanosoma vivax,"parasite growth, resazurin",,24 h,530 nM
Cc1ccc(N2CC3CC(C2)N3C)cc1C(=O)NC1(c2ccc3c4c(cccc24)C(=O)N3C)CC1,human coronavirus NL63,viral replication,,,81.6 nM
CN(C(=O)c1ccn2ncc(-c3ccc(C(F)(F)F)cc3)c2c1)c1ccc(C#N)cn1,Cryptosporidium parvum,cytopathic effect,HCT-8,,1540 nM
N#Cc1cccc(-c2ccccc2C(N)=O)c1,Bunyamwera virus,minigenome activity,BSR-T7,,> 100000 nM
C[C@@H](O)[C@H](NC(=O)[C@H](Cc1ccc(O)cc1)NC(=O)[C@@H]1CCCN1C(=O)OCC1c2ccccc2-c2ccccc21)C(=O)N[C@@H](CCCNC(=N)N)C(=O)N[C@@H](CO)C(=O)NCC(=O)N1CCC[C@H]1C(=O)NCC(=O)N[C@@H](Cc1c[nH]c2ccccc12)C(=O)N[C@@H](CO)C(=O)N[C@@H](CO)C(=O)N[C@@H](Cc1c[nH]cn1)C(=O)O,bacteriophage T1,"phage inactivation, plaque count",,"3 h, 37 °C, 50% phages deactivated",> 200 µg/mL
O=C(NCc1cccc2[nH]cc(C(=O)C(F)(F)F)c12)c1cn(Cc2ccc(F)cc2)cc(O)c1=O,Human betaherpesvirus 5,"viral replication, inhibitor",,7 days,1600 nM
Cc1cn(C2CC(N(C)C)C(CO)O2)c(=O)[nH]c1=O (stereo not drawn),feline herpesvirus,viral replication,CRFK,,> 370 nM
CCOc1cccc(NC(=O)CSc2cn(C(=O)OC(C)(C)C)c3ccccc23)c1,human coronavirus NL63,"viral cytopathic effect, MTS",LLC-MK2,120 h,12500 nM
CC(=O)CCC1C(=O)NC(C(C)C)C(=O)NC(Cc2cccc(O)c2)C(=O)N2CCCC(N2)C(=O)OC(C(C)=CC=CC(=O)N2CCCCO2)CC=CC=CC(O)C(C)C1O (stereo not drawn),hepatitis C virus genotype 1b,measured: HCV RNA,Huh-7 replicon,72 h,58 ± 5 nM
CNC(=O)c1ccc(-c2cnc3cnc(C(=O)N(C)c4ccc(Cl)cc4)cn23)cc1,Cryptosporidium parvum,cytopathic effect,HCT-8,,96 ± 44 nM
